# Results collected from several papers.
# Parts stem from different laboratories: compare values within a part only. Substitutions count along the parent as printed.

# Set 1
# Target: RING finger protein unkempt homolog, zinc fingers 1-6, SBP tag (UNK, Homo sapiens, UniProt Q9C0B0, residues 30-357)
# Sequence of UniProt Q9C0B0 (30-357, looked up): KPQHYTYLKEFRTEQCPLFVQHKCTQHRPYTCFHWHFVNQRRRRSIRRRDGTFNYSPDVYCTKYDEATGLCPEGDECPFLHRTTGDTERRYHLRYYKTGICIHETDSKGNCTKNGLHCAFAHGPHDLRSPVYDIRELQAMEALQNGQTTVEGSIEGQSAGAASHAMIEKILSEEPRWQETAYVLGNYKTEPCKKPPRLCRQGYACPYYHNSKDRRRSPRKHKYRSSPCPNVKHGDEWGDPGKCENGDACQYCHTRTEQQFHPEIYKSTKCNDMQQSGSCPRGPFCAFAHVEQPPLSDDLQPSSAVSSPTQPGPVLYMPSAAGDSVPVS
# Method: RNA Bind-n-Seq
# Molecule type: RNA
# Sample: in vitro
# Tested at: 100 nM
# Notes: RNA with constant flanks, vertebrate orthologous sites, ends assumed
# Baseline: input RNA pool
# Reading: higher = stronger binding
Strand,bound/input enrichment
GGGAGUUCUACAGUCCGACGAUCAUCAUCUGAUUGGAUGAAGACUGUUCCAAGUUAUAACCAGACAAAUAGCUCCAUGGACUUCAGAAAUUAUAUGAUGAGAGAUGAGAAUCUGGAACCACUGCCAAAAAACUGGGAAAUGGCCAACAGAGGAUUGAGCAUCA,0.397 ratio
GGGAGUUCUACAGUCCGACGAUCUAAUGUGUUUUUAUUUAUUGAGAAUAGUUUUGUGCUAAAGACUGUGCUAGACUUAAAAAUUAGUGGAUCACUUCCACUUUGUUGUGUUGCUUUUGUUAUUGAAAAUAAAUAUAACUUUGUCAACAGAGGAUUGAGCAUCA,0.337 ratio
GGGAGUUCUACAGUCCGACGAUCCUCGGGGAUACCAUGGGGCGCUGCUGACUGCUUCGCGUCGUUUGAUUUGUGACCUUGACAUAAUAGAUAGGCUUGUGGUUUGUUCGUUUUUUUAAUUUAAAGAUAUUAAAACUUAAUUCACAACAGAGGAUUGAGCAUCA,0.588 ratio
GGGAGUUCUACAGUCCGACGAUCCCGCUAAACCCCAUUUCUUCUGUUUCAUAGUGCAGAAGUAUUCUUUCUCAGUUAUAUUAUUAGUGGACUUGUUUUAAUUUUAGGGAAACUUCCAGUACAGAUACUGUGAGCUUACAUGGACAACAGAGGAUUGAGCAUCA,2.29 ratio
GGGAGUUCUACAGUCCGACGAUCUCCUCAACUUGUUCUAGCUUGUGAUCCUUCAAAAUUGGGUCAGGCAUUAGUGCUAGGUACUAGAAAUUUUGCAUUUCUCUAUUGCCAUUGAUCAGAGAGACAGACAUUAAAACAGGAAUACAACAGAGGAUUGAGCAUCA,0.502 ratio
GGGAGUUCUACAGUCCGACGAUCCAUGCACAUGCCGCUGUCACCAAAAGCAAAUACCUUUUUCAGAUUCAUUAAUAGCAUUUUUAGUACUUCCUCCUUCCUUCUAAUAGUUUAUAGCAUUAGGGGAACAGAAGUCCUGGUUCUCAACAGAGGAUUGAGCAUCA,2.09 ratio
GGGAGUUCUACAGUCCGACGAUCCUCUUUUCCAGGUUGGAUGUACUGGAAAAGUCAUAGGAAUUGAUCACAUUAAAGAGCUAGUAGAUGACUCAAUAAAUAAUGUCAGGAAGGAUGAUCCAACACUUCUGUCUUCAGGGAGAGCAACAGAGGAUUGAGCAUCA,0.978 ratio
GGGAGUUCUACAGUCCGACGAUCAUUCAAACCUGUGGUACCAUGGCCUCAUGUUGAAGGAGUAGAAGUGGACUUAGAGUCUAUUAGAAGAAAAAACAAGGCGAGAAAUGAACAAGAGCGCCAUGCUGGAGGAGAUAACCAGAACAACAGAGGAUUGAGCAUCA,0.633 ratio
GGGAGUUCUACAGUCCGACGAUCGAAGACUUUGUGUGCCAGAUUACCCCAAAAAACAUAAAGCUACUUUUUUACUUGCAUAUUUUUCAAAGUACCUGAAAAAUGGUUUUUCUCCUUUCUAAUGGUCAAAAGAAGGUACAUUUCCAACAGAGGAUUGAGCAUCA,0.487 ratio
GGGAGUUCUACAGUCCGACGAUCCUCUCUGAGCGAUAGUAUUCCAUCUGUAGCAGAUUCACACUCCAGCCAUUUCUCUGAGUUCAGUUGCUCAGAUAUGGAAAGUAUGAAAACUUCCUGUAGCCACGGUUCCAGCGACUAUCACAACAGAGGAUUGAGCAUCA,0.33 ratio
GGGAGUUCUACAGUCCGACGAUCUAGUGUUUAAGCCACCAACAGUUCUAAAAUGCUAUUUAUUUGUGUCUUUAAGUUUGUACAUAGUAAUACCCACCUCUUUGUUGCUUAAUUUGGCAGGGAGGCAGUGAGUUUGAAUUUUUGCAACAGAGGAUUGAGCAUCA,1.76 ratio

# Set 2
# Target: Histone acetyltransferase KAT6A, both winged helices, GST fusion (KAT6A, Homo sapiens, UniProt Q92794, residues 1-181)
# Method: protein binding microarray
# Molecule type: double-stranded DNA, one strand shown
# Sample: in vitro
# Tested at: not given
# Notes: 8-mer, flanks averaged, mean of 2 arrays, mostly near background
# Baseline: not given
# Reading: higher = stronger binding
# Residues (chain): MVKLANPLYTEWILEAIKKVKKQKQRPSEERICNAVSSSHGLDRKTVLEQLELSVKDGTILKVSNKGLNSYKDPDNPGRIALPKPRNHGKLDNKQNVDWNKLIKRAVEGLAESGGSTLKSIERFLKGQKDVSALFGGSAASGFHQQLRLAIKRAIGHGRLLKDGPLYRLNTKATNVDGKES
Strand,E-score
ACACTGAC,-0.111
CACATCAA,-0.0608
GGTCTTTA,0.0665
GGACGACA,-0.0159
AAAGTTTA,0.00602
CAACTATA,-0.0312
GGGTGCGA,0.057
CGTGAGAC,0.183
CGGCGGAA,0.355
ACTCCGTC,0.111
ATTTGTCA,-0.203
CCTATAGC,-0.0447
AGCGACAC,-0.0907
CTGGCATC,-0.215
ATCCCTGA,-0.197
CGACTCGA,-0.0789
ATTATAAT,-0.0439
TCTTGGCA,-0.196
CGAGAGAC,-0.11
AATAATCT,-0.158
ACTGACGG,0.143
GCAATGCC,0.0505
TCTGCAGA,0.0641
TGGCCACA,-0.215
ACCAAGAA,-0.158

# Set 3
# Target: RNA binding protein fox-1 homolog 2, RRM domain, GST-SBP tag (RBFOX2, Homo sapiens, UniProt O43251-10, residues 100-194)
# Method: RNA Bind-n-Seq
# Molecule type: RNA
# Sample: in vitro
# Tested at: 365 nM
# Notes: natural RNA segment, single round, ends assumed
# Baseline: no-protein control
# Reading: higher = stronger binding
# Target sequence (chain): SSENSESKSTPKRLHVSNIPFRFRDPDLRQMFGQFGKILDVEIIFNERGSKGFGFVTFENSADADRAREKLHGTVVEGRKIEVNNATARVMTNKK
Strand,RBNS enrichment (R)
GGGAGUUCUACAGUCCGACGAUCUGUAUUAUUUUCCUAUAUCCUUGGUUCUUUUCUGAUAAUUUACAGAUUUAGCUUUUCUUUUGUUAUAUAAACUGCUAGCCACAAAUUUUAGUUAUGUAAAAGGCUACCCUUGGAAUUCUCGGGUGCCAA,1.33
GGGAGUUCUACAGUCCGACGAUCUUUCAGAAAUUAUUUUAAAAGAUGCAUAGUAAAACAGUGUUUUCCUAUGGUAAGCAAAUAAGAAUGAAGUUUGUAGGGAAUAUUUGGAAUGAUUAAUAUAAAUUAGUAUAUGGAAUUCUCGGGUGCCAA,1.07
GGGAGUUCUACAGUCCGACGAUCAUAGAUAGUUUAGUCAACAUCCCCAUCUUGUGUCAAUCUGGACUCAGAGGAAGGAGUCAGCAUCCUGAGCAUCCAGAAGAUUCAUGGAACCUGAAGUUGCCUCUGGAGCCUGGAAUUCUCGGGUGCCAA,0.433
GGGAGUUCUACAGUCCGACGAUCUGUAGGUCGGUGCAGGAUCCCCAGAAGUGCAGGUCUCUCCAGUCUGCAGUUUGCCAACUUGUCUGCGUGCCAGCCAGCCACAGGGUGAUUCCAGAAGAGAGCUAUUUAAAUGGAAUUCUCGGGUGCCAA,1.12
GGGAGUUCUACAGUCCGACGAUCGAACUCUGUGACUGCUUUGCCCACCAGUGUCAUCAUGUCAUUUGCCCUAAACACCUUGUAGUUGCUGAAGACAACUCAAGAGCAUCUAAGGGGAGUAUCUCUCACGACCCUGGAAUUCUCGGGUGCCAA,0.365
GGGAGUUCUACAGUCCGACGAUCCUUUUGCAGACUUUGAACAGAACUCUGGUUCCUGUGUUGCCUCUAAUGAAGUAUUCUGUUCCUAGUUGUGGGUGUGCUGGGUGGAGUGUGAAACACGACAUGAUCAAAGGUGGAAUUCUCGGGUGCCAA,0.823
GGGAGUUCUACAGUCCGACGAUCGGACCAAGAGCAAGGCCCAGCUUCUGCUGGCCAAUCGUGUUCCUUCAGAUCACCCACAAUAAAGCGCAGCCCUUGCUGCAGCACCCGCUGCCAUCCUUGUCUCUGCUUCCUGGAAUUCUCGGGUGCCAA,0.231
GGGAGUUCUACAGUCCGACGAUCACAUGUGACUCUUCUCCGUGACUCUAUAAAGACCUAGCAGAGCAUGUGAGCAUUCUCAAACAAGAGACUAACUGAUGCUCCUGCUGUUAAAAAGGCAGAACUAGGGAGGUUGGAAUUCUCGGGUGCCAA,0.4
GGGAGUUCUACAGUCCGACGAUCCAAUGUUCUGGGUUGUGCAUGAAAUUGGAUCUGUAGACACUGUGGAAACGUUUGAAAGUGUUUGUUUCCUUCAUAUGAACCUGUAAAAUGCUGUGUAGCUGGAGUUCACGUGGAAUUCUCGGGUGCCAA,50.4
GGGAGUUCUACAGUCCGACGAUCACUCCCUUUGCUCACUCCAUUCGGGUCCACAGCUGAGGUUGCCGCUGACAAGAUGAAUGGGCACUGCCUGCCCUUCUAGUGAAAAGGCUUGGCUAUGGCCCUGUGUGACUUGGAAUUCUCGGGUGCCAA,0.445
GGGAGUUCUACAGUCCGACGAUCCUCCCUGCCCGGGAAGAGGACAGAUAACUGAUUUCCGUUCUUUUGACUGUGUUUUAAAAUUCUCUUUCUAAACACAGAGUGUUGGGCCUGGUUUGUUUCUGACAAAGUUAUGGAAUUCUCGGGUGCCAA,0.256
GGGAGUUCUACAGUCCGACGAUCUCCUAAGAGGAUAAAUUAUGUAACUGAUUUGCCCAGCUGAAUCAGGACUGCAAAUGCCAGGCUUUCCUUGGCCAUGUAUCUAAAAUCCCAUAAACUCCUCCCUUUGGGAGUGGAAUUCUCGGGUGCCAA,0.307

# Set 4
# Target: Sal-like protein 4, full length isoform A (SALL4, Homo sapiens, UniProt Q9UJQ4, residues 1-1053)
# Sequence of UniProt Q9UJQ4 (whole entry, looked up): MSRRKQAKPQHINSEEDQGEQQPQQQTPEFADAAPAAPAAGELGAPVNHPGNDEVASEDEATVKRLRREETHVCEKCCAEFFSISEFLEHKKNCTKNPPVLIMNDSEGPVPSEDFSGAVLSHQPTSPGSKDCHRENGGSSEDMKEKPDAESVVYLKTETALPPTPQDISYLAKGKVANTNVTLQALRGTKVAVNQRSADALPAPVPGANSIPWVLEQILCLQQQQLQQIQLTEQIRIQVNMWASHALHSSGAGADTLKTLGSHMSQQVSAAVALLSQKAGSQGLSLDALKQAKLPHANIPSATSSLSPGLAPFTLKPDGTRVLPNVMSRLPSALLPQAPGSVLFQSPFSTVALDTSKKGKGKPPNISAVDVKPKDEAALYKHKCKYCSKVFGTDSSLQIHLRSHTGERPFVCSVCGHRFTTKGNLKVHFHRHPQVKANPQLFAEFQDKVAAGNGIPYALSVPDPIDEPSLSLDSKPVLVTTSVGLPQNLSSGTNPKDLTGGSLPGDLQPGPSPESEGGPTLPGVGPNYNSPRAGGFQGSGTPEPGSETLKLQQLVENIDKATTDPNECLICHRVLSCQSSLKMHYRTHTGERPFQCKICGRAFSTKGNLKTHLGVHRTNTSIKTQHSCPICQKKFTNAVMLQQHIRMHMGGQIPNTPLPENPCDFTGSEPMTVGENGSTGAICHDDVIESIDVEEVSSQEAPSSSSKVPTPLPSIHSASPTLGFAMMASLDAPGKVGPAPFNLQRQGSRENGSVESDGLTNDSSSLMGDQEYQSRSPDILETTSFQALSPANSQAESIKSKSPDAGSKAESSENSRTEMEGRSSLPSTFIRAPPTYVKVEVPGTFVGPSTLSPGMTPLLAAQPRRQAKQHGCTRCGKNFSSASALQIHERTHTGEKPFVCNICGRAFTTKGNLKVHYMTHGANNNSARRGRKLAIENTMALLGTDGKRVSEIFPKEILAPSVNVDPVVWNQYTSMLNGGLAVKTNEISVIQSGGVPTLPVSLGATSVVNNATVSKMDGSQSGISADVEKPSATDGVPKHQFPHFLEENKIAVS
# Method: universal PBM
# Molecule type: double-stranded DNA, one strand shown
# Sample: in vitro
# Tested at: 600 nM
# Notes: 8-mer, flanks averaged, mean of replicates
# Reading: higher = stronger binding
Strand,E-score
AAATACGG,0.192
GTAAACCA,0.0346
ATTCCAGA,0.14
CTGTTAAA,0.141
AACCTAAT,0.105
ACACCCTG,-0.236
CACCATCA,0.00741
AAATTCGG,0.0863
ATAACGAG,0.228
CTGGCGTA,-0.147
AGCTCGTG,-0.162
GCCCGAGC,-0.366
GACCGTAA,0.0238
AACCCAAG,-0.0552
TTATAAAA,0.415
ACTACTGC,-0.107
CAGAGCGA,-0.126
CAGAATCG,-0.0484
ATCACGAC,0.00809
CCGAACAC,-0.0926
ACGTATCG,-0.00634
ATTGTGAA,0.264
AATTAAAT,0.343
AGGTAGAT,-0.00572
CTATCGAG,-0.098

# Set 5
# Target: CCNB2, cyclin fold, Cln2 fusion (human)
# Method: yeast growth competition, sequencing
# Sample: yeast
# Notes: weak parent motif
# Baseline: not given
# Reading: higher = stronger binding
# Parent: CDKN1A docking peptide (human); SKACRRLFGPVDS
Change,normalised enrichment score
K2R,0.201
F8T,-0.335
D12F,0.208
L7S,0.232
L7F,0.582
R5K F8L,0.948
G9H,0.523
L7I,0.697
K2F,-0.199
V11K,-0.0717
R5P,-0.428
D12M,0.603
V11D,0.816
D12Y,0.179
A3H,0.427
C4G,0.43
K2W,0.117
R5N,0.173
K2P,0.224
P10G,0.35
D12R,-0.178
A3K,0.764
R6T,0.888
K2Y,0.376
L7Y,0.565

# Excerpt of the above (set 5):
Change,normalised enrichment score
L7F,0.582
R5K F8L,0.948
G9H,0.523
L7I,0.697
K2F,-0.199
V11K,-0.0717
R5P,-0.428
D12M,0.603
V11D,0.816
D12Y,0.179
A3H,0.427
C4G,0.43
K2W,0.117
